# Measured values collected from several papers.
# Every numbered part comes from another study and shows a few of its results, in no order. Substitutions count along the parent as printed.

# Series 1 — method: RNA Bind-n-Seq; form: RNA; medium: in vitro; tested at: not given; reference: input RNA pool; direction: higher = stronger binding
# Target: RING finger protein unkempt homolog, zinc fingers 1-6, GST-SBP tag (UNK, Homo sapiens, UniProt Q9C0B0, residues 30-357)
# Notes: RNA with constant flanks, human and mouse sites, ends assumed
# Construct (chain): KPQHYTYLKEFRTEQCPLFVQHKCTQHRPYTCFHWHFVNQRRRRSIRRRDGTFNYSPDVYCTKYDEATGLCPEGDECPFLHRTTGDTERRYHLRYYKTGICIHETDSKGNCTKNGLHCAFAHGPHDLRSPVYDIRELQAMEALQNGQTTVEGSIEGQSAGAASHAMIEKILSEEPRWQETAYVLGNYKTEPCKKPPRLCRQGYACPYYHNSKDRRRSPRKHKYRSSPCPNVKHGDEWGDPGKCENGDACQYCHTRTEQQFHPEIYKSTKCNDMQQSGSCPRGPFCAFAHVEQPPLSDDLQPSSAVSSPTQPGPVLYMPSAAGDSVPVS
Sequence,bound/input enrichment [ratio]
GGGAGUUCUACAGUCCGACGAUCGCAUAUUAUAUCAGACUGCUUUGAGAAAUCUCAUCCCUAGUCUAUUGCAGUUGUUUCUAUUAGCUUACUGAUUAACUCAGUCCUGACACACCUUUUGGGAAAUGCUGAUUUAAACUUCUUCAACAGAGGAUUGAGCAUCA,4.38
GGGAGUUCUACAGUCCGACGAUCGCAGGUAUUCAGUACACAAUGCAGGCAUUAGUUUCUCAGUUAAAAAACAAGGAGAGACAGUAGCUGAUGUUAGGACACUACCCAAUGCCUCAACCGUGGACAAUAUUCGCUCCAUCUUUGCAACAGAGGAUUGAGCAUCA,0.0866
GGGAGUUCUACAGUCCGACGAUCGAUAUAAAGACUAUAUUUUCUGAAUUUAUCACAAUCGAAAUGUUAUUUCACGGCAAAGCUUUAGAGGUCUACACUGCUGCCUACCAGAAUAUACAAAACAUUGAUGAAGAUGAAGAUUUACAACAGAGGAUUGAGCAUCA,0.329
GGGAGUUCUACAGUCCGACGAUCAGUAGUACCAGUUUGCCACCUGUCGCUGAUGAAAGCCCAGUCACUGUAAAACCAGAUAGUCAACUUGAAGACAUGGGAUACUGUGUGUUCAACAAGUACACAGUCCCUCUCCCAUCACCACAACAGAGGAUUGAGCAUCA,0.297

# Series 2 — method: protein binding microarray; form: double-stranded DNA, one strand shown; medium: in vitro; tested at: not given; reference: not given; direction: higher = stronger binding
# Target: Histone acetyltransferase KAT6A, both winged helices, GST fusion (KAT6A, Homo sapiens, UniProt Q92794, residues 1-181)
# Notes: 8-mer, flanks averaged, mean of 2 arrays, mostly near background
# Construct (chain): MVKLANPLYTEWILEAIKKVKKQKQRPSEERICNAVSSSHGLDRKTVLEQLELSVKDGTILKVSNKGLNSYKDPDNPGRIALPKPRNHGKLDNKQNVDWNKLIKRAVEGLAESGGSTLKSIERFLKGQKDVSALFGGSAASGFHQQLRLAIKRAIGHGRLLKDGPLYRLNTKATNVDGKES
Sequence,E-score
CTTGATAA,-0.0757
ATGAAGCC,0.0288
ATATCGTC,-0.154
GTCTCTGA,-0.0611
AATCTGGC,-0.0881
ACACCGTG,0.219
AAGCGATT,0.0575

# Series 3 — target: CCNB2, cyclin fold, Cln2 fusion (human); method: yeast growth competition, sequencing; medium: yeast; notes: weak parent motif; reference: not given; direction: higher = stronger binding
# Starting sequence: CDC6 docking peptide (human); TLKGRRLVFDNQL
Variant,normalised enrichment score
R5L,0.419
K3F,-0.164
Q12E,-0.313
R6I,-0.223
K3Y,0.39
L7N,0.364

# Further values, each from its own experiment
Molecule,target,assay,system,conditions,scale,endpoint,value
"PhoQ, residues 284 288 289 292 302 303 SSTLSG","PhoP, residues 12 14 15 18 19 SPWRL (Escherichia coli, UniProt P23836)","Sort-seq, refers to: YFP reporter",E. coli,"PhoQ-PhoP variant library, together with: 10 µM Mg2+","reference: high Mg2+ state, higher = stronger signaling",fold induction,13.9

# A few entries again (series 2):
Sequence,E-score
CTTGATAA,-0.0757
ATGAAGCC,0.0288
ATATCGTC,-0.154
